Earlier results that unrelated publications cite.
UniProt Q96PY6, sequence (whole entry, looked up): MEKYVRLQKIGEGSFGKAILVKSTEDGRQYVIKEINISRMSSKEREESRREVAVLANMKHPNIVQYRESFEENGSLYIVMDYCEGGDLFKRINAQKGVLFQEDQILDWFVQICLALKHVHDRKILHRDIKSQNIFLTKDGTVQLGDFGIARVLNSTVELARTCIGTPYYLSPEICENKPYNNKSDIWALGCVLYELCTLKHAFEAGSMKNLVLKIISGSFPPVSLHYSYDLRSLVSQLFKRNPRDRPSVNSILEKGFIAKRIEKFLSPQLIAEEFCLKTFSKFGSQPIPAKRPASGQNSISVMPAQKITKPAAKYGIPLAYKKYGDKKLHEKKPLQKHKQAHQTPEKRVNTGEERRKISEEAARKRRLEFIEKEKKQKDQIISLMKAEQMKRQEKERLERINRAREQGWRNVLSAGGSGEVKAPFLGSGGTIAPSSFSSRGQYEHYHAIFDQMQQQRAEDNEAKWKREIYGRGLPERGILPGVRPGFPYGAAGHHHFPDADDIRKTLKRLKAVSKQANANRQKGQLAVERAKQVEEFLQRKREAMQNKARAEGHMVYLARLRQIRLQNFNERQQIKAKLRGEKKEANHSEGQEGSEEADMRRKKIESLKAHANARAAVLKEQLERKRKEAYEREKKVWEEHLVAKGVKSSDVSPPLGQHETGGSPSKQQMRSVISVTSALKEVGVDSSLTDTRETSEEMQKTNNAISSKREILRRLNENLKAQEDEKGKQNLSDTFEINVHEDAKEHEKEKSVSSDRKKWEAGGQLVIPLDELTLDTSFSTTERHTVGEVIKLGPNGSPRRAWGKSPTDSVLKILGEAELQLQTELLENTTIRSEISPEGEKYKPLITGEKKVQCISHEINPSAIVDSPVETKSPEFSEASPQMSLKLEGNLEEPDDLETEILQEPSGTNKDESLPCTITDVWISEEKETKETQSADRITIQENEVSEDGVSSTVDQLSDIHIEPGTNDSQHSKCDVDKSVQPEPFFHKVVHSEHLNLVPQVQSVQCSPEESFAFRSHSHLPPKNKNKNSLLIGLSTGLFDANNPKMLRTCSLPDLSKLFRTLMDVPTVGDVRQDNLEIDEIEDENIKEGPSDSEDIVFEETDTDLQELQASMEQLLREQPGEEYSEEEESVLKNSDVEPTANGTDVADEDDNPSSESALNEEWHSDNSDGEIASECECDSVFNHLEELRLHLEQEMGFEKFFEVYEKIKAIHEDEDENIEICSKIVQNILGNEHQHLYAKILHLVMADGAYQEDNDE

| Structure (SMILES) | tested on | read-out | strain | tested at | reference | quantity | result |
| --- | --- | --- | --- | --- | --- | --- | --- |
| CC1(C)S[C@@H]2[C@H](NC(=O)[C@H](N)c3ccccc3)C(=O)N2[C@H]1C(=O)O | Bacillus cereus | – | – | – | – | MIC | 0.016 to 32 µg/mL |
| FC(F)(F)c1ccc(Oc2ccc(-c3noc(-c4ccc5[nH]ccc5c4)n3)cc2)cc1 | Veillonella sp. | – | HM-49 | – | – | MIC | > 128 µg/mL |
| Nc1cc(C(F)(F)F)c(-c2nc(N3CCOCC3)nc(N3CCOCC3)n2)cn1 | Serine/threonine-protein kinase Nek1 (NEK1, Homo sapiens, UniProt Q96PY6) | enzyme activity | – | 10 µM | untreated | remaining activity | 76% |
| CO/N=C(\C(=O)N[C@@H]1C(=O)N2C(C(=O)O)=C(COC(C)=O)CS[C@H]12)c1csc(N)n1 | Escherichia coli | – | ATCC BAA-2469 | – | – | MIC | 512 µg/mL |
| CC(=O)Nc1nnc(S(N)(=O)=O)s1 | Enterococcus | – | vancomycin-resistant | – | – | MIC | 9 µM |
| Oc1ccc(-c2nc(-c3ccc(OC4CCCC4)cc3)no2)cc1 | Acinetobacter baumannii | – | ATCC 17961 | – | – | MIC | > 128 µg/mL |
| CC[C@H]1OC(=O)[C@H](C)[C@@H](O[C@H]2C[C@@](C)(OC)[C@@H](O)[C@H](C)O2)[C@H](C)[C@@H](O[C@@H]2O[C@H](C)C[C@H](N(C)C)[C@H]2O)[C@](C)(OC)C[C@@H](C)C(=O)[C@H](C)[C@@H](O)[C@]1(C)O | Mycolicibacterium smegmatis | – | mc2155 | – | – | MIC | 2 µg/mL |
| CCc1c(Cl)c(O)c(Cl)c(O)c1C(=O)O[C@H]1[C@H](O)[C@H](OC)[C@H](OC/C2=C\C=C\C[C@H](O)/C(C)=C/[C@H](CC)[C@@H](O[C@@H]3OC(C)(C)[C@@H](OC(=O)C(C)C)[C@H](O)[C@@H]3O)/C(C)=C/C(C)=C/C[C@@H]([C@@H](C)O)OC2=O)O[C@@H]1C | Bifidobacterium longum | – | HM-846 | – | – | MIC | < 0.01 µg/mL |
| CO[C@H]1/C=C/O[C@@]2(C)Oc3c(C)c(O)c4c(O)c(c(/C=N/N5CCN(C)CC5)c(O)c4c3C2=O)NC(=O)/C(C)=C\C=C\[C@H](C)[C@H](O)[C@@H](C)[C@@H](O)[C@@H](C)[C@H](OC(C)=O)[C@@H]1C | Escherichia coli | – | ATCC BAA-2469 | – | – | MIC | 4 µg/mL |
| CC1(C)S[C@@H]2[C@H](NC(=O)[C@H](N)c3ccccc3)C(=O)N2[C@H]1C(=O)O | Klebsiella pneumoniae | – | clinical isolate RKI-No_95/16 | – | – | MIC | > 16 µg/mL |
| CO/N=C(\C(=O)N[C@@H]1C(=O)N2C(C(=O)O)=C(CSc3nc(=O)c(=O)[nH]n3C)CS[C@H]12)c1csc(N)n1 | Escherichia coli | – | ATCC 25922 | – | – | MIC | 0.03 to 0.12 µg/mL |
| CC(=O)O[C@H]1C[C@@]2(C)[C@@H](C[C@@H](O)[C@H]3[C@@]4(C)CC[C@@H](O)[C@@H](C)[C@@H]4CC[C@@]32C)/C1=C(\CCC=C(C)C)C(=O)O | Mycolicibacterium smegmatis | – | mc2155 | – | – | MIC | 32 µg/mL |
| CNC(C)C1CCC(N)C(OC2C(N)CC(N)C(OC3OCC(C)(O)C(NC)C3O)C2O)O1 (centres unmarked) | Enterobacter cloacae | – | clinical isolate RKI-No_361/13 | – | – | MIC | 4 µg/mL |
| Oc1ccc(-c2nc(-c3ccc(OC4CCCC4)cc3)no2)cc1 | Lactobacillus reuteri | – | HM-102 | – | – | MIC | > 128 µg/mL |
| C[C@H]1c2cccc(O)c2C(=O)C2=C(O)[C@]3(O)C(=O)C(C(N)=O)=C(O)[C@@H](N(C)C)[C@@H]3[C@@H](O)[C@@H]21 | Mycolicibacterium smegmatis | – | mc2155 | – | – | MIC | 0.2 µg/mL |
| C[C@@H](O)[C@H]1C(=O)N2C(C(=O)O)=C(S[C@@H]3CN[C@H](C(=O)N(C)C)C3)[C@H](C)[C@H]12 | Escherichia coli | – | ATCC BAA-2469 | – | – | MIC | 32 µg/mL |
| CCc1c(Cl)c(O)c(Cl)c(O)c1C(=O)O[C@H]1[C@H](O)[C@H](OC)[C@H](OC/C2=C\C=C\C[C@H](O)/C(C)=C/[C@H](CC)[C@@H](O[C@@H]3OC(C)(C)[C@@H](OC(=O)C(C)C)[C@H](O)[C@@H]3O)/C(C)=C/C(C)=C/C[C@@H]([C@@H](C)O)OC2=O)O[C@@H]1C | Enterococcus faecium | – | 106 vancomycin-resistant | – | – | MIC | > 16 µg/mL |
